Measured values pooled from the literature.
A part holds a random share of what one study measured. “And” joins repeats or separate records; there may be more than shown.
UniProt P45984, sequence (whole entry, looked up): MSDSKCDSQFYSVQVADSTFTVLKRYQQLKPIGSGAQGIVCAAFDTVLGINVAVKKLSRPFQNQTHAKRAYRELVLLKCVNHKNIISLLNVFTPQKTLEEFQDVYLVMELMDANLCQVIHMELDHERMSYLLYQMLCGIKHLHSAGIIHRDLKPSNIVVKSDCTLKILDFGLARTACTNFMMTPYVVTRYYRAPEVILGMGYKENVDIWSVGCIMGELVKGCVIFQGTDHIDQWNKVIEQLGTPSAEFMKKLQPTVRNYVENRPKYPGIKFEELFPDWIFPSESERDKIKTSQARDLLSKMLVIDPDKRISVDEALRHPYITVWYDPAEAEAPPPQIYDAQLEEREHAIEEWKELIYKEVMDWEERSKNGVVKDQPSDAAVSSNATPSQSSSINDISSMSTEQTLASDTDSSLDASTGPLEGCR
UniProt Q00535, sequence (whole entry, looked up): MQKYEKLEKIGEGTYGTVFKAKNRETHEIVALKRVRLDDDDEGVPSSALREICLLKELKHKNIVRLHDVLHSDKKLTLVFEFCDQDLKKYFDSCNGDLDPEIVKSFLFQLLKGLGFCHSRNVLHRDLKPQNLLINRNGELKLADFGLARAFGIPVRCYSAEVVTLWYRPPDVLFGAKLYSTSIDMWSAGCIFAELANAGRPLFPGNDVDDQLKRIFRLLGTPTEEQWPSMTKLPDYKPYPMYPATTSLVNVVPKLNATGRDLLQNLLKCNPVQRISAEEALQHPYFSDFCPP
UniProt O75676, sequence (whole entry, looked up): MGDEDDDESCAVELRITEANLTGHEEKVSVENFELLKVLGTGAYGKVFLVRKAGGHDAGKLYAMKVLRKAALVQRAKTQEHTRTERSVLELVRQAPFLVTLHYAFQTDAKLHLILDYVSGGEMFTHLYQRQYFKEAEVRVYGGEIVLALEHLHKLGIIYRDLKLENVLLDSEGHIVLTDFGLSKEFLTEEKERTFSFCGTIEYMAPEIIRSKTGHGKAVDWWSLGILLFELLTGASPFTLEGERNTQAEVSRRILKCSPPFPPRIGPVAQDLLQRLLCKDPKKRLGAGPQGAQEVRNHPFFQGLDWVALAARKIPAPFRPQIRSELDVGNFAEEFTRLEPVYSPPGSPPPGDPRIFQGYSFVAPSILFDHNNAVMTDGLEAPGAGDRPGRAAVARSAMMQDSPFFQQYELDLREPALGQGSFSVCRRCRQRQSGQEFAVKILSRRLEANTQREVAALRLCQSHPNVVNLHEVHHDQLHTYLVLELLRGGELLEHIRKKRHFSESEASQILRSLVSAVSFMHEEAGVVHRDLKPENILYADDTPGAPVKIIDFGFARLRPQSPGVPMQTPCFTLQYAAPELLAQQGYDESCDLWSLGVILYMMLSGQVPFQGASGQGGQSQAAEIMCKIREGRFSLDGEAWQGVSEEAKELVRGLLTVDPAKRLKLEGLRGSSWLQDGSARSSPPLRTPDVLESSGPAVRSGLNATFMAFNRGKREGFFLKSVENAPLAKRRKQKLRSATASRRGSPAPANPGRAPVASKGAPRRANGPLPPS
UniProt O75385, sequence (whole entry, looked up): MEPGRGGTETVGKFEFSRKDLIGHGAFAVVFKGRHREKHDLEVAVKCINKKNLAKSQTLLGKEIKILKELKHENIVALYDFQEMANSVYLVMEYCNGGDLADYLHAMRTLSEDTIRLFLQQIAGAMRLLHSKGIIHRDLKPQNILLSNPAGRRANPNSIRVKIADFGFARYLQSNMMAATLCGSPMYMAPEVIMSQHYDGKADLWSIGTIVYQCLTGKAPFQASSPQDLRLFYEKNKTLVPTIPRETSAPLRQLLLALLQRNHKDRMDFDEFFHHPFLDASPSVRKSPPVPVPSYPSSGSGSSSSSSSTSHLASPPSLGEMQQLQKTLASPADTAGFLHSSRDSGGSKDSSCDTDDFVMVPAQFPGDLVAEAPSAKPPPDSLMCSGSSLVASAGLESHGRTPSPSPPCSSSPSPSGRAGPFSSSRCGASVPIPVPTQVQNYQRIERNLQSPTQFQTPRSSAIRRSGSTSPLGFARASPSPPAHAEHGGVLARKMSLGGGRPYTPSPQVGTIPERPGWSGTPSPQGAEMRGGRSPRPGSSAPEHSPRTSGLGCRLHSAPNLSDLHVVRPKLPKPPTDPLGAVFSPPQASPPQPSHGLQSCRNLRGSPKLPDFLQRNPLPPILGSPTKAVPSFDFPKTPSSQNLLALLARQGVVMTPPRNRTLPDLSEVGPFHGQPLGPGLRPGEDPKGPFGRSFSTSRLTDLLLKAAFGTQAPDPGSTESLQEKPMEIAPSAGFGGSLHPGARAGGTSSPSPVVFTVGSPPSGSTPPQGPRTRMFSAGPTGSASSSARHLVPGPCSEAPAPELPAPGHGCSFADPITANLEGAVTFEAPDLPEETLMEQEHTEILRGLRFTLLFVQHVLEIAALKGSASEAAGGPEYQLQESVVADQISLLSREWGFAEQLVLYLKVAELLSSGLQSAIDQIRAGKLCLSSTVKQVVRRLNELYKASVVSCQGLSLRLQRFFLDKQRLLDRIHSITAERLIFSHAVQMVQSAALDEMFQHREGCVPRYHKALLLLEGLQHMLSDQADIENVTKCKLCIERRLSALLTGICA
UniProt Q8TDX7, sequence (whole entry, looked up): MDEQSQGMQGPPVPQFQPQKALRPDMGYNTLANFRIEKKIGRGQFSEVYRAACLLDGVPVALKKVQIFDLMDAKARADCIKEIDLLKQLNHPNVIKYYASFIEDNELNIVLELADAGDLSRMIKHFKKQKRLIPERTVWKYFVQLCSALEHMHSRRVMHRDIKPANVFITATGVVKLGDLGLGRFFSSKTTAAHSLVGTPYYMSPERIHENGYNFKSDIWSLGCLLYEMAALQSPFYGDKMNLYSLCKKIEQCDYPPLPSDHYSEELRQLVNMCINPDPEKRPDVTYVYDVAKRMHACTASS
UniProt O94804, sequence (whole entry, looked up): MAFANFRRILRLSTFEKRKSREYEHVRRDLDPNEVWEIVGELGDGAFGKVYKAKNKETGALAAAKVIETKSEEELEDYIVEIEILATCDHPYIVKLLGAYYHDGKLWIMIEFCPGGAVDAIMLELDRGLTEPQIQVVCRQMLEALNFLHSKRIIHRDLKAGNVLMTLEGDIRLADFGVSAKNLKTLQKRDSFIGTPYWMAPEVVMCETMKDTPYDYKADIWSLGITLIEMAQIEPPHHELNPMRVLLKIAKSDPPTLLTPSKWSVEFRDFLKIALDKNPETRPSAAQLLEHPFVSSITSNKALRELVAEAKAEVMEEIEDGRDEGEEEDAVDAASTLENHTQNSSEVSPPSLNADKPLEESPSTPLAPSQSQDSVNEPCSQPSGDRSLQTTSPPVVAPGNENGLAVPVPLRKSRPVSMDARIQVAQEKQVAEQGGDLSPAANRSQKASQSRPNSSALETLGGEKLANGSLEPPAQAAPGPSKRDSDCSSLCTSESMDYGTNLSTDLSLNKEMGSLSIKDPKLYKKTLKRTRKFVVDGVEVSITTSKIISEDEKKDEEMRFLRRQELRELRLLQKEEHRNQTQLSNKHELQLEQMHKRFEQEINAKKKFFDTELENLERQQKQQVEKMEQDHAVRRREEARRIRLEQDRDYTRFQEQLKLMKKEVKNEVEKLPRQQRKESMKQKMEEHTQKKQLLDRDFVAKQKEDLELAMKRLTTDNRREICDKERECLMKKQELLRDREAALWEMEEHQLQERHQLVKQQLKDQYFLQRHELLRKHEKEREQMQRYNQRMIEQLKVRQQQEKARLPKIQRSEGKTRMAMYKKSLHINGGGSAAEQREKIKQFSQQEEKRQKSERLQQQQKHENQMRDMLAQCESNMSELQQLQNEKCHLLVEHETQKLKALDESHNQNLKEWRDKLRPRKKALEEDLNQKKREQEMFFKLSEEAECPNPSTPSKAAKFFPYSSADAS
UniProt Q99759, sequence (whole entry, looked up): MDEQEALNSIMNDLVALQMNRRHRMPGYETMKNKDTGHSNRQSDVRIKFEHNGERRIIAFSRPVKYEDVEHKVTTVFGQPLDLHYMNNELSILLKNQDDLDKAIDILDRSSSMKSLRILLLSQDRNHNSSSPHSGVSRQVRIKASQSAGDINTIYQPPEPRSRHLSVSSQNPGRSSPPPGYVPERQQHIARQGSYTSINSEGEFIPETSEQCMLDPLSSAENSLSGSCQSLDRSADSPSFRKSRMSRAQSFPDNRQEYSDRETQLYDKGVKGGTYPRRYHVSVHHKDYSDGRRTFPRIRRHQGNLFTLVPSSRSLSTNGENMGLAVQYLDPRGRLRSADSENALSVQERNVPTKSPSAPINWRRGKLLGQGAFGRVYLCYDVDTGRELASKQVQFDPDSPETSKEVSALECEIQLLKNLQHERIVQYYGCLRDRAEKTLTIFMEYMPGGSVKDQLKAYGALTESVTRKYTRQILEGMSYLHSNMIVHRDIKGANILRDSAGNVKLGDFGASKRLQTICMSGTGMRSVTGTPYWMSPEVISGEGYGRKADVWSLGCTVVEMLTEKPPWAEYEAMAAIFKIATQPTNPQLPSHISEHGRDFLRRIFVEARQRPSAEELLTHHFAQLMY
UniProt Q13557, sequence (whole entry, looked up): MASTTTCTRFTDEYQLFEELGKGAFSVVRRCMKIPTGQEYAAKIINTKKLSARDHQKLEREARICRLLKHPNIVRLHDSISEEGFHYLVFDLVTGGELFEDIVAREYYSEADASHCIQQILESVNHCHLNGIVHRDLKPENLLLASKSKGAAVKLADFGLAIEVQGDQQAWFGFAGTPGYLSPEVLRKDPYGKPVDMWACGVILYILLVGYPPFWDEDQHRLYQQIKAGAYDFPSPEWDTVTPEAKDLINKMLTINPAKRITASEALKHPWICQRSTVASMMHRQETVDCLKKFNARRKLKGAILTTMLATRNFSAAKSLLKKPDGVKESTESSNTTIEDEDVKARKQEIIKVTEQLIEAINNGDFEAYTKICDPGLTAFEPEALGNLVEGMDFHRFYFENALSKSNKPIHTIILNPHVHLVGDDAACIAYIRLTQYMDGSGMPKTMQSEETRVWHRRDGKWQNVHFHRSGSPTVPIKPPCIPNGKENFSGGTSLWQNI

Sample 1 — effect on: enzyme activity; mode: inhibitor; concentration: 0.5 µM; baseline: control; endpoint: remaining activity
SMILES: O=c1c(-c2ccc(F)cc2)c(-c2ccncc2)[nH]n1-c1ccc(Cl)cc1
Cyclin-dependent kinase 5, with p25 (CDK5, Homo sapiens, UniProt Q00535): 76.3%
STK39 (Homo sapiens, UniProt Q9UEW8): 128%
CAMK2D (Homo sapiens, UniProt Q13557): 95.6%
DAPK2 (Homo sapiens, UniProt Q9UIK4): 104%
STK10 (Homo sapiens, UniProt O94804): 81.9%
CAMKK2 (Homo sapiens, UniProt Q96RR4): 83%
Protein kinase C beta type, isoform beta-I (PRKCB, Homo sapiens, UniProt P05771): 84.7%
GRK3 (Homo sapiens, UniProt P35626): 95%
MAP3K3 (Homo sapiens, UniProt Q99759): 96.2%
Tyrosine-protein kinase Lyn, isoform B (LYN, Homo sapiens, UniProt P07948): 99.7%
cGMP-dependent protein kinase 1, isoform beta (PRKG1, Homo sapiens, UniProt Q13976): 106%
DAPK1 (Homo sapiens, UniProt P53355): 84.5%
IKBKB (Homo sapiens, UniProt O14920): 102%
PRKCA (Homo sapiens, UniProt P17252): 100%
TGFBR2 (Homo sapiens, UniProt P37173): 97.7%
Cyclin-dependent kinase 4, with cyclin D1 (CDK4, Homo sapiens, UniProt P11802): 102%
OXSR1 (Homo sapiens, UniProt O95747): 83.3%
STK11 (Homo sapiens, UniProt Q15831): 98.8%
CHEK2 (Homo sapiens, UniProt O96017): 91.4%
IKBKE (Homo sapiens, UniProt Q14164): 98.3%
PRKACA (Homo sapiens, UniProt P17612): 90.7%
MAPK9 (Homo sapiens, UniProt P45984): 6.07%
NEK2 (Homo sapiens, UniProt P51955): 85.4%

Sample 2 — organism: Sarcocystis neurona; effect on: parasite growth; concentration: 10 µM; time: 96 h; notes: secondary screen; endpoint: inhibition
NC(=O)c1cccnc1: -28.2%
CC1=NS(=O)(=O)c2cc(Cl)ccc2N1: -17.5%
CC12CC3CC(C)(C1)CC(N)(C3)C2: -6.2%
CN(C)CC[C@@H](c1ccc(Cl)cc1)c1ccccn1: -18.6%
CN(C)CCc1c[nH]c2ccc(Cn3cncn3)cc12: -27.3%
CCCNC(C)C(=O)Nc1ccccc1C (stereo not drawn): -10.8%
Cc1ccc(NC(=O)c2ccc(CN3CCN(C)CC3)cc2)cc1Nc1nccc(-c2cccnc2)n1: -48.1%
O=C(O)c1cc(-c2ccc(F)cc2F)ccc1O: -21.4%
Nc1nc2c(ncn2COCCO)c(=O)[nH]1: -4.8%
CN(C)CCCN1c2ccccc2CCc2ccccc21: -17.7%
NS(=O)(=O)c1cc2c(cc1Cl)N=CNS2(=O)=O: -12%
CC1(C)O[C@@H]2[C@@H](CO[C@@]3(COS(N)(=O)=O)OC(C)(C)O[C@@H]23)O1: -22.2%

Sample 3 — effect on: cell-free assay; method: competition with immobilised ligand; concentration: 1 µM; endpoint: remaining binding
Structure (SMILES): CCCCN(CCCC)C(=O)CN1C[C@@H](c2cc(OC)c3c(c2)OCO3)[C@H](C(=O)O)[C@H]1CC(C)(C)CCC
NEK7 (Homo sapiens, UniProt Q8TDX7): 86.6%
ULK1 (Homo sapiens, UniProt O75385): 89.2%
MAPK9 (Homo sapiens, UniProt P45984): 100%
Tyrosine-protein kinase ABL1, phosphorylated (ABL1, Homo sapiens, UniProt P00519): 100%
Ribosomal protein S6 kinase alpha-4, N-terminal kinase domain (RPS6KA4, Homo sapiens, UniProt O75676): 100%
TNK1 (Homo sapiens, UniProt Q13470): 100%
DDR1 (Homo sapiens, UniProt Q08345): 100%
FYN (Homo sapiens, UniProt P06241): 99.1%
STK3 (Homo sapiens, UniProt Q13188): 100%
GAK (Homo sapiens, UniProt O14976): 95.8%
FLT3 (Homo sapiens, UniProt P36888, F691L/ITD): 99.1%
CIT (Homo sapiens, UniProt O14578): 90.5%
DCLK1 (Homo sapiens, UniProt O15075): 81.5%
PIK3CA (Homo sapiens, UniProt P42336, C420R): 99.4%
SRC (Homo sapiens, UniProt P12931): 75.2%

Further values, each from its own experiment
Ic1ccc(Nc2nc(NCCN3CCOCC3)nc(N3CCOCC3)n2)cc1
remaining activity (lysosomal β-galactosidase (human, wild type); healthy dermal fibroblasts; 1 µM, unit not given; baseline: DMSO): 1.13 and 1.11 and 1.1 and 1.09 and 1.22

Excerpt of the above (sample 2):
CN(C)CC[C@@H](c1ccc(Cl)cc1)c1ccccn1: -18.6%
CN(C)CCc1c[nH]c2ccc(Cn3cncn3)cc12: -27.3%
CCCNC(C)C(=O)Nc1ccccc1C (stereo not drawn): -10.8%
Cc1ccc(NC(=O)c2ccc(CN3CCN(C)CC3)cc2)cc1Nc1nccc(-c2cccnc2)n1: -48.1%
O=C(O)c1cc(-c2ccc(F)cc2F)ccc1O: -21.4%
